Measurements gathered from unrelated publications.
Several values in a cell are separate wells, animals, samples, runs or records. ± marks the error that the study gave.

Cc1ccc(NC(=O)c2ccc(CN3CCN(C)CC3)cc2)cc1Nc1nccc(-c2cncc(-c3oncc3C)c2)n1  AUC(0-t) (healthy volunteers, plasma; oral, 12.5 mg once daily, day 1, 7-day dosing, mean): 6700 ng·h/mL
Cc1cc(-c2ccn3c(-c4ccc(CC(=O)Nc5cccc(C(F)(F)F)c5)c(F)c4)cnc3c2)ccn1  AUC(0-t) (human; oral, 50 mg once daily, multiple doses, visit 1): 12800 ng·h/mL and 12700 ng·h/mL and 11300 ng·h/mL
CC(C)=CCC[C@](C)(O[C@@H]1O[C@H](CO)[C@@H](O)[C@H](O)[C@H]1O)[C@H]1CC[C@]2(C)[C@@H]1[C@H](O)C[C@@H]1[C@@]3(C)CC[C@H](O[C@@H]4O[C@H](CO)[C@@H](O)[C@H](O)[C@H]4O[C@@H]4O[C@H](CO)[C@@H](O)[C@H](O)[C@H]4O)C(C)(C)[C@@H]3CC[C@]12C  AUC(0-t) (LC-MS/MS; healthy female volunteers, serum; oral, 3 g red ginseng): 10.8 ± 11.8 ng·h/mL
Cc1nc(Nc2ncc(C(=O)Nc3c(C)cccc3Cl)s2)cc(N2CCN(CCO)CC2)n1  AUC(0-t) (patients, plasma; oral, 100 mg, day 0, given alone, geometric mean): 476 ng·h/mL
CC(C)=CCC[C@](C)(O[C@@H]1O[C@H](CO)[C@@H](O)[C@H](O)[C@H]1O)[C@H]1CC[C@]2(C)[C@@H]1[C@H](O)C[C@@H]1[C@@]3(C)CC[C@H](O[C@@H]4O[C@H](CO)[C@@H](O)[C@H](O)[C@H]4O)C(C)(C)[C@@H]3CC[C@]12C  AUC(0-t) (LC-MS/MS; healthy volunteers, serum; oral, 3 g fermented red ginseng): 27.2 ± 37.2 ng·h/mL
CCCN1CC(c2ccc(S(C)(=O)=O)cc2)=C(c2ccc(C)cc2)C1=O  AUC(0-t) (healthy Chinese, non-elderly, plasma; oral, 100 mg): 137 ng·h/mL
CNC(=O)c1ccc(-c2cnc3ncc(Cc4ccc5ncccc5c4)n3n2)cc1F  AUC(0-t) (severe hepatic impairment; oral, 200 mg, geometric mean): 7710 ng·h/mL
C[C@H]1Oc2cc(cnc2N)-c2c(nn(C)c2C#N)CN(C)C(=O)c2ccc(F)cc21  AUC(0-t) (healthy adults; oral tablet, 100 mg single dose, adjusted geometric mean, added: rabeprazole 20 mg): 7950 ng·h/mL
O=C(c1cc(Cl)c(O)c(Cl)c1)N1CS(=O)(=O)c2ccccc21  AUC(0-t) (healthy Chinese adults, fasted, plasma; oral, 10 mg single dose): 12900 ± 2130 ng·h/mL
CC#CC(=O)N1CCC[C@H]1c1nc(-c2ccc(C(=O)Nc3ccccn3)cc2)c2c(N)nccn12  AUC(0-t) (Japanese patients, plasma; oral, 100 mg twice daily, day 8, fasting, multiple dose, geometric mean): 1210 ng·h/mL
O=C(NC[C@H](O)CO)c1ccncc1Nc1ccc(I)cc1F  AUC(0-t) (patients, plasma; oral, 45 mg single dose, day 8, median, alone): 1270 ng·h/mL
CCC[C@H](N[C@@H](C)C(=O)N1[C@H](C(=O)O)C[C@@H]2CCCC[C@@H]21)C(=O)OCC  AUC(0-t) (healthy Chinese volunteers, plasma; oral, 4 mg, up to 6 h, fasting, added: indapamide 1.25 mg): 51.4 ± 12.8 ng·h/mL
Cc1nc(-c2ccc(OCC(C)C)c(C#N)c2)sc1C(=O)O  AUC(0-t) (healthy Chinese adult volunteers, plasma; oral, 80 mg single dose, fed): 14000 ± 4000 ng·h/mL
Cc1nc2cccc(N)c2c(=O)n1C1CCC(=O)NC1=O (stereo not drawn)  AUC(0-t) (healthy adults, plasma; oral, 3 mg, geometric mean, added: fluvoxamine 50 mg twice daily): 1070 ng·h/mL
NC(=O)c1cnc2[nH]ccc2c1N[C@@H]1[C@@H]2CC3C[C@H]1C[C@@](O)(C3)C2  AUC(0-t) (healthy Japanese men, plasma; oral, 20 mg, single dose fasted): 256 ng·h/mL
